{"data": "Measurements collected from several papers", "note": "Each line is one published result; not all experiments were run side by side."}
{"Structure (SMILES)": "CC(C)c1cccc(C(C)C)c1-n1ccn(-c2c(C(C)C)cccc2C(C)C)c1=[Se].[Cl][Ag]", "cell line": "A2780 ADR", "test": "MTT", "how to read": "baseline: A2780 ADR over A2780", "endpoint": "resistance factor", "value": 0.5}
{"Structure (SMILES)": "C=C(C)[C@@H]1CC[C@]2(C(=O)OCO/N=[N+](\\[O-])N3CCCC3)CC[C@]3(C)[C@H](CC[C@@H]4[C@@]5(C)CC[C@H](OC(C)=O)C(C)(C)[C@@H]5CC[C@]43C)[C@@H]12", "cell line": "B16-F10", "test": "Annexin V/PI flow cytometry", "conditions": "1 µM, 36 h", "endpoint": "Annexin V-positive cells", "value": "22.1%"}
{"Structure (SMILES)": "N=C(N/N=C/c1ccc(Cl)cc1)N/N=C/c1ccc(Cl)cc1", "cell line": "PANC-1", "test": "crystal violet", "conditions": "72 h", "how to read": "baseline: IC50 hTERT-HPNE over IC50 PANC-1", "endpoint": "selectivity ratio", "value": 0.8}
{"Structure (SMILES)": "CC(=O)OC[C@H]1O[C@@H](Sc2sc(C(=O)c3ccc(Br)cc3)c(N)c2-c2nc3ccccc3s2)[C@H](OC(C)=O)[C@@H](OC(C)=O)[C@H]1OC(C)=O", "cell line": "786-0 renal cancer", "test": "SRB", "conditions": "10 µM, 48 h", "endpoint": "growth percent", "value": "94.4%"}
{"Structure (SMILES)": "O=C1NC(=O)C(=Cc2ccc(-c3cccc(C(F)(F)F)c3)o2)S1", "cell line": "activated PBMC", "conditions": "1 µM, 0.5 h", "endpoint": "NADH level increase", "value": "82%"}
{"Structure (SMILES)": "COc1cc(CN2CCN(c3ccc(F)cc3)CC2)c2cc3[n+](cc2c1O)CCc1cc2c(cc1-3)OCO2", "cell line": "Ca-Ski and MDCK", "test": "SRB", "conditions": "48 h", "how to read": "baseline: CC50 MDCK over IC50 Ca-Ski", "endpoint": "therapeutic index", "value": 24.1}
{"Structure (SMILES)": "O=C(CCCN1CCC(O)(c2ccc(Cl)cc2)CC1)c1ccc(F)cc1", "cell line": "hiPSC cardiac tissues 3D", "test": "active force", "conditions": "15 min per concentration, paced at 1 Hz serum-free", "endpoint": "minimum effective concentration", "value": "0.3 µM"}
{"Structure (SMILES)": "COc1cc(CNC(=O)C[C@H](C)CCC=C(C)C)ccc1OCc1cn(-c2cccc(C(F)(F)F)c2)nn1", "cell line": "SK-MEL-5 melanoma cells", "test": "SRB", "conditions": "10 µM, 48 h", "endpoint": "growth percent", "value": "78.8%"}
{"Structure (SMILES)": "CC(=O)OC[C@H]1O[C@@H](Sc2sc(C(=O)c3ccc(C)cc3)c(N)c2-c2nc3ccccc3s2)[C@H](OC(C)=O)[C@@H](OC(C)=O)[C@H]1OC(C)=O", "cell line": "HOP-92", "test": "SRB", "conditions": "10 µM, 48 h", "how to read": "baseline: untreated", "endpoint": "growth", "value": "83.7%"}
{"Structure (SMILES)": "COc1cc(CNC(=O)C[C@H](C)CCC=C(C)C)ccc1OCc1cn(-c2ccccc2[N+](=O)[O-])nn1", "cell line": "SK-OV-3 ovarian cancer cells", "test": "SRB", "conditions": "10 µM, 48 h", "endpoint": "growth percent", "value": "68.4%"}
{"Structure (SMILES)": "CC(CCC(=O)NCc1ccc(C(=O)NO)cc1)C1CCC2C3C(O)CC4CC(O)CCC4(C)C3CCC12C (stereo not shown)", "cell line": "polycystic liver disease cholangiocytes (human)", "test": "immunoblot", "conditions": "2 or 10 µM", "endpoint": "ERK1/2 phosphorylation", "value": "decreased"}
{"Structure (SMILES)": "CC(Cc1ccc(Cl)cc1)=C(c1ccc(Cl)cc1)c1ccc(OCCN(C)C)cc1", "cell line": "HOP-92", "test": "cell growth or viability, SRB", "endpoint": "GI50", "value": "1.62 µM"}
{"Structure (SMILES)": "COc1cc(CNC(=O)C[C@H](C)CCC=C(C)C)ccc1OCc1cn(-c2ccc([N+](=O)[O-])cc2)nn1", "cell line": "NCI-H23", "test": "SRB", "conditions": "10 µM, 48 h", "endpoint": "growth percent", "value": "45.5%"}
{"Structure (SMILES)": "COc1ccc(C2=NN(C3=NC(=O)C(=Cc4ccc(O)cc4)S3)C(c3ccc(F)cc3)C2)cc1 (stereo not shown)", "cell line": "T47D", "test": "annexin V-FITC/PI flow cytometry", "conditions": "concentration not given", "endpoint": "total apoptotic cells", "value": "30.4%"}
{"Structure (SMILES)": "CC(C)(C)c1nc(-c2cccc(NS(=O)(=O)c3c(F)cccc3F)c2F)c(-c2ccnc(N)n2)s1.Cc1[nH]c2ccccc2c1CCNCc1ccc(/C=C/C(=O)NO)cc1", "cell line": "C13", "test": "flow cytometry", "conditions": "concentration not given, 48 h, concentration about IC50", "endpoint": "cells in G0/G1 phase", "value": "5.93%"}
{"Structure (SMILES)": "COc1cc(CNC(=O)C[C@H](C)CCC=C(C)C)ccc1OCc1cn(-c2ccc(Cl)cc2Cl)nn1", "cell line": "NCI-H322M", "test": "SRB", "conditions": "10 µM, 48 h", "endpoint": "growth percent", "value": "95.2%"}
{"Structure (SMILES)": "C[N+](C)(C)c1ccc(C2NC(c3ccc([N+](C)(C)C)cc3)C34c5c6c7c8c9c%10c(c%11c%12c3c3c5c5c%13c6c6c7c7c9c9c%14c%10c%10c%11c%11c%12c%12c3c3c5c5c%13c%13c6c6c7c9c7c9c%14c%10c%10c%11c%11c%12c3c3c5c5c%13c6c7c6c9c%10c%11c3c56)C824)cc1 (stereo not shown)", "cell line": "BCBL1", "test": "cell growth or viability", "conditions": "24 h", "endpoint": "CC50", "value": "18.1 µM"}
{"Structure (SMILES)": "COc1cc(CNC(=O)C[C@H](C)CCC=C(C)C)ccc1OCc1cn(-c2ccc(F)cc2)nn1", "cell line": "NCI-H322M", "test": "SRB", "conditions": "10 µM, 48 h", "endpoint": "growth percent", "value": "105%"}
{"Structure (SMILES)": "C=CC(=O)Nc1ccccc1Nc1nc(Nc2ccnc(C#CCCNC(=O)OC3CC/C=C/CCC3)c2)ncc1Cl (stereo not shown)", "cell line": "A-375", "test": "degrader, immunoblot", "conditions": "concentration not given", "endpoint": "ERK1/2 protein level", "value": "no effect"}
{"note": "A few entries again:"}
{"Structure (SMILES)": "CC(Cc1ccc(Cl)cc1)=C(c1ccc(Cl)cc1)c1ccc(OCCN(C)C)cc1", "cell line": "HOP-92", "test": "cell growth or viability, SRB", "endpoint": "GI50", "value": "1.62 µM"}
